Experimental data of several laboratories.
Each numbered part is a random draw from the data of one study; scales do not carry over between parts. Substitutions count along the parent as printed.
Chain of UniProt P78362 (whole entry, looked up): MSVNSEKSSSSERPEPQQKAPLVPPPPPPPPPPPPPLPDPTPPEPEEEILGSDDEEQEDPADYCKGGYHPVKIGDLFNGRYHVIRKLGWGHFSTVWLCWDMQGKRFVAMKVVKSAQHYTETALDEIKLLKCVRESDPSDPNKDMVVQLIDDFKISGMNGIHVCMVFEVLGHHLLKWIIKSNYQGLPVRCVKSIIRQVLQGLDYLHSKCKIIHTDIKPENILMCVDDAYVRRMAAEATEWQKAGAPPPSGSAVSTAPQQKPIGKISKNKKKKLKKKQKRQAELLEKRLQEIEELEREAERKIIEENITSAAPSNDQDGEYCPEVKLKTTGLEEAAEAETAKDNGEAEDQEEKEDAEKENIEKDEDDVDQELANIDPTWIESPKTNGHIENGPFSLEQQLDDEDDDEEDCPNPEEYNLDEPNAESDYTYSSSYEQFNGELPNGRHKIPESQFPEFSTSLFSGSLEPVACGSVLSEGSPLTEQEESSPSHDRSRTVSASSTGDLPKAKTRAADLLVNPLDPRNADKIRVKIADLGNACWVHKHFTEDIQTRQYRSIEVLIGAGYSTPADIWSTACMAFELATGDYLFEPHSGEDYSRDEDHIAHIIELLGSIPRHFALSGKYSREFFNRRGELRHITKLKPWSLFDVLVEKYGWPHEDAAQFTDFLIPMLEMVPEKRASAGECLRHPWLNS
Chain of UniProt Q13188 (whole entry, looked up): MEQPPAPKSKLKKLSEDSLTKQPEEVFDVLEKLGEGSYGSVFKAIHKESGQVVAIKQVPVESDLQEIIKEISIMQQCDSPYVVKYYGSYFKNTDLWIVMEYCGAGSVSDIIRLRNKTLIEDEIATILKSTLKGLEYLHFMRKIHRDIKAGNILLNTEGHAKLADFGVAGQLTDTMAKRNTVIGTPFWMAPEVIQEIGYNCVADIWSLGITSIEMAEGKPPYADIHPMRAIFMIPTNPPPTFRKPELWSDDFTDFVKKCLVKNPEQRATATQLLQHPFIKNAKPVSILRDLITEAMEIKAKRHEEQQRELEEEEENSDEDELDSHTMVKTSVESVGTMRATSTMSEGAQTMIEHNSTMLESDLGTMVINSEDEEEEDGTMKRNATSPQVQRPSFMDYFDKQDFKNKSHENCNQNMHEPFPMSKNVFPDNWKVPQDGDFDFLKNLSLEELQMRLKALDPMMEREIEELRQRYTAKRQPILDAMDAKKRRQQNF
Chain of UniProt Q9H2X6 (whole entry, looked up): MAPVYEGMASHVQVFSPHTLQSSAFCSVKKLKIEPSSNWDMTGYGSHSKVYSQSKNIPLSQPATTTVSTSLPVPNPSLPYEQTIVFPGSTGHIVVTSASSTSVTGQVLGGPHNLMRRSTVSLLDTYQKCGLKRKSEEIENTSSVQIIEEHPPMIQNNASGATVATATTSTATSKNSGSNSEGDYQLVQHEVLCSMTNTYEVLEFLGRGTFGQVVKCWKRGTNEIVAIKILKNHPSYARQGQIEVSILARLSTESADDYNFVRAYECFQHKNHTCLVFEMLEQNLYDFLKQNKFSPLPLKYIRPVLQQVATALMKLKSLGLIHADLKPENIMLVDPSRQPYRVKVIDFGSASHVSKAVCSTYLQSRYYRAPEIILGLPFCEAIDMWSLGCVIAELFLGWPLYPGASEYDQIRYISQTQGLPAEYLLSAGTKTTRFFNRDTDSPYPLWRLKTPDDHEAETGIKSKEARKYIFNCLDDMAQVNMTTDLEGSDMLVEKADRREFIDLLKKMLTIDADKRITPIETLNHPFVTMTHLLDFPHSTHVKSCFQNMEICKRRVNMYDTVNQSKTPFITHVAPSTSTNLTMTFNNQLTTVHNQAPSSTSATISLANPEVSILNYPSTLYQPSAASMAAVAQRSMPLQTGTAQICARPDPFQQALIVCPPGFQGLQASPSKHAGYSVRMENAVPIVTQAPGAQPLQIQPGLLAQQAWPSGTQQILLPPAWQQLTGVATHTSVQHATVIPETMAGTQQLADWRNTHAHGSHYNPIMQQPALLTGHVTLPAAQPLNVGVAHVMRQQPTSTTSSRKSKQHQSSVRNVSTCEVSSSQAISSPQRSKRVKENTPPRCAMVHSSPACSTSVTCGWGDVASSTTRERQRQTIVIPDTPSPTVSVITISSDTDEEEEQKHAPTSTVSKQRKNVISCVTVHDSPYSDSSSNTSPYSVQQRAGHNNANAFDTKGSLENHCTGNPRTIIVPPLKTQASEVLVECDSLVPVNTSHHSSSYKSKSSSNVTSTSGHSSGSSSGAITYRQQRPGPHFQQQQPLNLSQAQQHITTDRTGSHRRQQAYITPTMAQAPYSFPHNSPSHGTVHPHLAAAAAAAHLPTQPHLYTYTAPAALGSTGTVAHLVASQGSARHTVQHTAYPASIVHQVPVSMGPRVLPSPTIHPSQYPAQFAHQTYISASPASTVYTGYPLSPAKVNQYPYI
Chain of UniProt Q9NRM7 (whole entry, looked up): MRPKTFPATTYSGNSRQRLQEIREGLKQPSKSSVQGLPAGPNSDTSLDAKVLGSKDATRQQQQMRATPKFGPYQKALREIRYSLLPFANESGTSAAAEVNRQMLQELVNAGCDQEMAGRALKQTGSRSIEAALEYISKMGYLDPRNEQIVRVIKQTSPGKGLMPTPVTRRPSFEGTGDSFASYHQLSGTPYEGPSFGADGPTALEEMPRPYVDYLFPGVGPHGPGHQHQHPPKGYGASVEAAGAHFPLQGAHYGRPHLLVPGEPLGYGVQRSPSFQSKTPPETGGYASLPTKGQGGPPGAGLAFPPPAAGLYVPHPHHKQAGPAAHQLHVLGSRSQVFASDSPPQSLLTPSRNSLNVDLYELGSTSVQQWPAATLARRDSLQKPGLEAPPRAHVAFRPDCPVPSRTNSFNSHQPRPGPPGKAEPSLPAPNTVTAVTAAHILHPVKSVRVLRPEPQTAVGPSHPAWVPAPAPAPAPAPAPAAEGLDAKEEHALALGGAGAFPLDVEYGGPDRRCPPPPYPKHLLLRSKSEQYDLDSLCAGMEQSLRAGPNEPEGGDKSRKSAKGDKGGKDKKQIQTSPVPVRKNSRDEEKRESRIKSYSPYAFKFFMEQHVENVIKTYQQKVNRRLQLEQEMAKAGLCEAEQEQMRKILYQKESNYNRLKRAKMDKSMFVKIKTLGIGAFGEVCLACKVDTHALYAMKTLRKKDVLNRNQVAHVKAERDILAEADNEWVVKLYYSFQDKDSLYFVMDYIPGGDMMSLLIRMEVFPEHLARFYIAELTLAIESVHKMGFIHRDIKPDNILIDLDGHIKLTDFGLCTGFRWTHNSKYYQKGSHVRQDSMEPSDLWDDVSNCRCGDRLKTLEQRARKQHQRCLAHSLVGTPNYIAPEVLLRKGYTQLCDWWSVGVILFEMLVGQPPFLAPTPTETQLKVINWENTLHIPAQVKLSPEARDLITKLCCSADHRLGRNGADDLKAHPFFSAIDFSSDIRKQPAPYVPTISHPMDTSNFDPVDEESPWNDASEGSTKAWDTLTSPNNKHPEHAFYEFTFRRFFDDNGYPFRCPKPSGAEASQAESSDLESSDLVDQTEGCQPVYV
Chain of UniProt P49759 (whole entry, looked up): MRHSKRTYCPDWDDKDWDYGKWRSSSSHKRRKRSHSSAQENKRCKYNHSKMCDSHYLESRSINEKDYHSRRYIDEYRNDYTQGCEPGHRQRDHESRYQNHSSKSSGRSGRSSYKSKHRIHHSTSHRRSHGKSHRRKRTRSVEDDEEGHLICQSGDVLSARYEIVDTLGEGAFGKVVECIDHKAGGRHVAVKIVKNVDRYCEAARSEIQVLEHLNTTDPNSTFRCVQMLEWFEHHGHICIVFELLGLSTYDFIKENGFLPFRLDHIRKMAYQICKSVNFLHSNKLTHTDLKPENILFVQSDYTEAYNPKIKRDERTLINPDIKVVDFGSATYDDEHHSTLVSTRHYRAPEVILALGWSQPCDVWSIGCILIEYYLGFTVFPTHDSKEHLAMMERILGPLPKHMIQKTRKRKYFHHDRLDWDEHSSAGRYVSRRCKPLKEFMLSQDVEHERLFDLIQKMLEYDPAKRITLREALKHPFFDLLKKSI
Chain of UniProt Q9NYY3 (whole entry, looked up): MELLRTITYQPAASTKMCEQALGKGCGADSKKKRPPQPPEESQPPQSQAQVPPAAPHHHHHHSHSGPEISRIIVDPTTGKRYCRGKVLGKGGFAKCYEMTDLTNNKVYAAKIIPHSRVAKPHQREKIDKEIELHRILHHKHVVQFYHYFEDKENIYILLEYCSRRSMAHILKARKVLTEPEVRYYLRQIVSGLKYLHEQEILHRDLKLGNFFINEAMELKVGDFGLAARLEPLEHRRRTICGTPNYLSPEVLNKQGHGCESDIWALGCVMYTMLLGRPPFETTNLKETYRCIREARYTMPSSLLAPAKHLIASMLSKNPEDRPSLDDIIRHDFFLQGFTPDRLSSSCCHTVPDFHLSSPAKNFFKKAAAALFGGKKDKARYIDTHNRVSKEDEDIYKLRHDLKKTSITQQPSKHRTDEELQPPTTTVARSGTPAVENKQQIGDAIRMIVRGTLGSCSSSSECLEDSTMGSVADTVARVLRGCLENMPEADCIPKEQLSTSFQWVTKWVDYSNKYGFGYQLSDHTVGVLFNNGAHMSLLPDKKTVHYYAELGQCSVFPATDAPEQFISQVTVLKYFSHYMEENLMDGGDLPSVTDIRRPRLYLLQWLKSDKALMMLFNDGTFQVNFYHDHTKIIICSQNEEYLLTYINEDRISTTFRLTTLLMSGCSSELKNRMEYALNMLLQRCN

Block 1
Species: mouse
Sample: microsomes or S9
Tested at: 2 µM
Time: 0.5 h
Endpoint: remaining compound
SMILES = CC(C)N(CCNC(=O)c1ccc2c(c1)N(Cc1cccc(Cl)c1)C(=O)c1ccccc1[S+]2[O-])Cc1ccccc1 (stereo not drawn); value = 0.0422%
SMILES = CCCC1(CC(=O)N2CCN(C)CC2)CCOC(C)(C)C1 (stereo not drawn); value = 16.2%
SMILES = CC(C)COc1ccc(Cc2cnc(N)nc2N)cc1; value = 5.34%
SMILES = CCc1cc(CN2OCC(C)(C)C2=O)c(Cl)s1; value = 1%

Block 2
Target: PABPC1L2, full length, GST fusion (mouse, UniProt A0ABA7IW68)
Technique: RNAcompete
Form: RNA
Sample: in vitro
Tested at: 20 nM
Notes: 7-mer, probes averaged, single round
Reference: mean of 7-mers
Reading: higher = stronger binding
Endpoint: 7-mer Z-score
Residues (chain): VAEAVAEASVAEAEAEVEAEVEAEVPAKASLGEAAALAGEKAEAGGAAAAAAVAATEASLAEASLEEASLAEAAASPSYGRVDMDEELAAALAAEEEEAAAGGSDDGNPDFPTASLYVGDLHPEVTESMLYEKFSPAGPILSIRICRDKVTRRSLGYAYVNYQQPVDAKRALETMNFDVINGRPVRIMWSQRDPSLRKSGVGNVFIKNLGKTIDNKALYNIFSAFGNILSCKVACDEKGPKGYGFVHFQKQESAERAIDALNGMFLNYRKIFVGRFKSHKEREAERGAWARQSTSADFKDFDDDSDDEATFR
Strand = AAGUAGU; value = -0.0573
Strand = CUACCUA; value = -0.215
Strand = AACGCGU; value = 0.0189
Strand = CGGAAAG; value = 0.102
Strand = CUUGGUA; value = -0.0518
Strand = GGCUGGA; value = 0.338
Strand = UGUAGAU; value = -0.121
Strand = AAUAACA; value = 0.452

Block 3
SMILES: CN(C)C(=O)Cn1cc(-c2nc([C@@](C)(c3ccc(-c4cnc(N)nc4)cc3)C3CC3)no2)cn1
Effect on: cell-free assay
Technique: competition with immobilised ligand
Tested at: 1 µM
Endpoint: remaining binding
target = Tyrosine-protein kinase ABL1, phosphorylated (ABL1, Homo sapiens, UniProt P00519, Q252H); value = 83%
target = DYRK1A (Homo sapiens, UniProt Q13627); value = 73%
target = CLK1 (Homo sapiens, UniProt P49759); value = 93%
target = STK3 (Homo sapiens, UniProt Q13188); value = 100%
target = NTRK2 (Homo sapiens, UniProt Q16620); value = 81%
target = Tyrosine-protein kinase ABL1, non-phosphorylated (ABL1, Homo sapiens, UniProt P00519); value = 84%
target = TNIK (Homo sapiens, UniProt Q9UKE5); value = 100%
target = SRPK2 (Homo sapiens, UniProt P78362); value = 100%
target = PKN1 (Homo sapiens, UniProt Q16512); value = 99%
target = PLK2 (Homo sapiens, UniProt Q9NYY3); value = 56%
target = HIPK2 (Homo sapiens, UniProt Q9H2X6); value = 87%
target = LATS2 (Homo sapiens, UniProt Q9NRM7); value = 74%
target = ERBB3 (Homo sapiens, UniProt P21860); value = 95%

Block 4
Target: MAFK, bZIP domain (human)
Technique: DHFR protein complementation
Sample: yeast
Notes: single substitutions, most at no-binding floor
Reference: wild-type JUN-FOS pair
Reading: higher = stronger binding
Endpoint: binding fitness
Starting sequence: JUN, bZIP domain (human); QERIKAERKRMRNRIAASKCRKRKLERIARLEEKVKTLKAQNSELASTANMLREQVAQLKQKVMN; partner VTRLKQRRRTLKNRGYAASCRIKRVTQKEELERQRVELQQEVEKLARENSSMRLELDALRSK
Variant = N42T; value = -1.45 natural log
Variant = L31K; value = -1.51 natural log
Variant = E33P; value = -1.5 natural log
Variant = M51E; value = -1.56 natural log
Variant = L45P; value = -1.5 natural log
Variant = L38H; value = -1.49 natural log
Variant = T48H; value = -1.5 natural log
Variant = S47F; value = -1.45 natural log
